Experimental data pooled from the literature.
Each numbered part is a random draw from the data of one study; scales do not carry over between parts. Positions count from the first letter of the parent shown.

Block 1
Target: UBE2L6 UBC core domain (UniProt O14933)
Method: yeast two-hybrid
Medium: yeast
Notes: mostly zero background
Baseline: not given
Reading: higher = stronger interaction
B1: RFPL2 RING domain (UniProt O75678); chain MAALFQEASSCPVCSDYLEKPMSLECGCAVCLKCINSLQKEPHGEDLLCCCSSMVSRKNKIRR
B2: TRIM3 RING domain (UniProt O75382); chain VQPMDKQFLVCSICLDRYQCPKVLPCLHTFCERCLQNYIPAQSLTLSCPVCRQTSILPEQGV
B3: TRIM38 RING domain (UniProt O00635); chain STKKMMEEATCSICLSLMTNPVSINCGHSYCHLCITDFFKNPSQKQLRQETFCCPQCRAPFHMDSLRP
B4: RNF4 RING domain (UniProt P78317); chain TGLRPSGTVSCPICMDGYSEIVQNGRLIVSTECGHVFCSQCLRDSLKNANTCPTCRKKINHKRYHP
B5: MSL2 RING domain (UniProt Q9HCI7); chain LLPYFRQSLSCCVCGHLLQDPIAPTNSTCQHYVCKTCKGKKMMMKPSCSWCKDYEQFEENKQ
B6: RNF14 RING domain (UniProt Q9UBS8); chain IKCFNSKLFLCSICFCEKLGSECMYFLECRHVYCKACLKDYFEIQIRDGQVQCLNCPEPKCPSVATPGQVK
B7: RNF43 RING domain (UniProt Q68DV7); chain SGSSCSSAPVCAICLEEFSEGQELRVISCLHEFHRNCVDPWLHQHRTCPLCMFNITEGDSFS
B8: PEX2 RING domain (UniProt P28328); chain DNTLATSGKECALCGEWPTMPHTIGCEHIFCYFCAKSSFLFDVYFTCPKCGTEVHSLQPLK
B9: TRIM35 RING domain (UniProt Q9UPQ4); chain PSRSFKEELLCAVCYDPFRDAVTLRCGHNFCRGCVSRCWEVQVSPTCPVCKDRASPADLRT
B10: RNF150 RING domain (UniProt Q9ULK6); chain DKETESDFDNCAVCIEGYKPNDVVRILPCRHLFHKSCVDPWLLDHRTCPMCKMNILKALGIP
Target sequence (chain): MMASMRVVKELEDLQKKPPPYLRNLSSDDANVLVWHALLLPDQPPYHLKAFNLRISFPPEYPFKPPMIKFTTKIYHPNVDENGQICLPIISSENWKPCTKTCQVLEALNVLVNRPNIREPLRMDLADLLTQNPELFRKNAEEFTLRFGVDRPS
Molecule	lacZ reporter activity
MANWVFCNRCFQPPHRTSCFSLTNCGHVYCDACLGKGKKNECLICKAPCRTVLLSK (RNF212 RING domain (UniProt Q495C1))	0
QLQDEEDDSLCRICMDAVIDCVLLECGHMVTCTKCGKRMSECPICRQYVVRAVHVF (RNF34 RING domain (UniProt Q969K3))	0
B1 (RFPL2 RING domain)	0
B2 (TRIM3 RING domain)	0
B3 (TRIM38 RING domain)	0
B4 (RNF4 RING domain)	2110
SYEDKSNDFVCPICFDMIEEAYMTKCGHSFCYKCIHQSLEDNNRCPKCNYVVDNIDHLY (COP1 RING domain (UniProt Q8NHY2))	0
B5 (MSL2 RING domain)	0
B6 (RNF14 RING domain)	0
B7 (RNF43 RING domain)	0
B8 (PEX2 RING domain)	0
B9 (TRIM35 RING domain)	0
LKQVSIRENCCSLCCDEVADTQLKPCGHSDLCMDCALQLETCPLCRKEIVSRIRQI (RSPRY1 RING domain (UniProt Q96DX4))	0
B10 (RNF150 RING domain)	5760
KRQCSDVDDICSICQAEFQKPILLICQHIFCEECMTLWFNREKTCPLCRTVISDHINKW (RNFT1 RING domain (UniProt Q5M7Z0))	0

Block 2
Target: Centromere-binding protein 1, full length, N-terminal tag (CBF1, Saccharomyces cerevisiae, UniProt P17106, residues 1-351)
UniProt P17106, sequence (whole entry, looked up): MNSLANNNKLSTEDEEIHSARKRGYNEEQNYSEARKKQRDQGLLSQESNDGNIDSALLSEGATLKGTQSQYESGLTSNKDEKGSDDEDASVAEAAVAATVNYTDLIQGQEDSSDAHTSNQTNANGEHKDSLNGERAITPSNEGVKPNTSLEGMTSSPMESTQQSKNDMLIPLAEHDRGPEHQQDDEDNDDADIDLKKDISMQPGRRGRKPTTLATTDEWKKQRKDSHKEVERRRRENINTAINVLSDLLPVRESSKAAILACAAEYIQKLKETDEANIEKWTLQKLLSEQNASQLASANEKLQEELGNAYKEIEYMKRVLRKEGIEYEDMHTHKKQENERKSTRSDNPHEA
Method: protein-binding microarray
Molecule type: double-stranded DNA, one strand shown
Medium: in vitro
Tested at: 0.8 µM
Notes: whole 60-bp probe, no competitor
Reading: higher = stronger binding
All sequences stand within: … GTCTTGATTCGCTTGACGCTGCTG
Sequence	fluorescence intensity [a.u.]
GAACACAATTAATGTCATGTGGCCGACGTAATGTAG	1970
CTAGAAAATAGTCGACGTCAGTCACCTCCAGGTTTC	515
TGTACGAAGCTATGTGACCAGATTATAGTAGTTAGG	626
TGTACGAAGCTATTACGCCTGATTATAGTAGTTAGG	533
GAATTTTTCTACGTAATCATGATGATCTTTTTTTAG	532
CTAAGAAGCGATCGTCACCTTCCATTGGGGTTATTC	480
GAAATTTTAGCAACCCACACCATATACCTTTGGTAG	498
CTACATATTTGAGTAGATCTGATGCGCAATGTCTTC	524
CTATTTGACACATACGTGACAACTACTTTTGATTTC	626
GAATAAAACTAGTGGCACGTTTAAATGACTTTTTAG	556
CTAACCTGAATGATTAATCTGATGCTTGCAATATTC	517
GAACTTCATTTTGATGTCACAAAAAAGTAATACTAG	558
CTAGCCGTTGTTCATACCGTGACTAATAGTGGCTTC	791
CTATTTTTGTATTCTGCTGATATCTTTTTCTACTTC	531
GAAACGACAAACTACCACATGAAGTGGCGGAACTAG	476
CTACAGCTTTGCAATCATATGATATTTTCGCCCTTC	659
GAAAAGATGTATGCACCCGTGCCCCCGCTGTAGTAG	563
CTACTCTGCGCAGTGCACGTTCAAAAGAAAAGCTTC	591
GAATTCGTGCTGATCCACGGGGTATTCAATTGATAG	704
GAAATTAGTCCACCTCGCACGTGAAAAGCTGGGTAG	3090
CCTAACTACTATAGCCACGTGACATAGCTTCGTACA	15100
CCTAACTACTATACCCACGACTAATAGCTTCGTACA	506
CTATCTACCGAACGTCACCGCTGGTACCATGCATTC	524
CTACATTCATATTTACATGTGCGTTACTACTTATTC	624
CTAGGACAATTCCATTTGATGTCACCGTGGTAATTC	511

Block 3
Target: Histone acetyltransferase KAT6A, winged helix 2, GST fusion (KAT6A, Homo sapiens, UniProt Q92794, residues 85-181)
Method: protein binding microarray
Molecule type: double-stranded DNA, one strand shown
Medium: in vitro
Tested at: not given
Notes: 8-mer, flanks averaged, mean of 2 arrays, mostly near background
Baseline: not given
Reading: higher = stronger binding
Target sequence (chain): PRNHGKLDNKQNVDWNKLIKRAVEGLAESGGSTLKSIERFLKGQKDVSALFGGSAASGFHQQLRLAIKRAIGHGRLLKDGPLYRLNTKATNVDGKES
Sequence	E-score
ACAATTCG	0.0332
AGCAAACG	0.0503
ACGTTCGC	-0.0769
TTAAGTAA	-0.0504
ATTAAGTC	0.0646
CAAATTCA	0.0845
ATAAGTTC	0.0484
ACAGCTGG	-0.137
GTATTTAA	-0.0827
GTAGACAA	-0.127
CCACCTAG	-0.109
CCCCAGAA	-0.00636
GGGGGCGA	0.092
ACCTTTCA	-0.0546
ATCCATCC	0.0442
CCCCATTA	-0.215

Block 4
Target: CCNF, cyclin fold, Cln2 fusion (human)
Method: yeast growth competition, sequencing
Medium: yeast
Notes: strong parent motif
Baseline: not given
Reading: higher = stronger binding
Starting sequence: ANKRD17 docking peptide (human); PSVRRQLFVTVVK
Variant	normalised enrichment score
K13A	7.64
R5A L7A	0.444
S2A	8.64
F8A	1.63
R5A	2.94
V9A	8.58
R5K F8L	1.88
R5K	3.58
V12A	8.95
V11A	9.36

Block 5
Target: ABI1, truncated, D143A, DHFR fusion (Arabidopsis thaliana)
Method: DHFR PCA, deep sequencing
Medium: yeast
Notes: methotrexate growth selection, single substitutions
Together with: (+)-ABA 4.8 µM
Baseline: wild-type fitted maximum
Reading: higher = stronger binding
Starting sequence: PYL1, truncated, DHFR fusion (Arabidopsis thaliana); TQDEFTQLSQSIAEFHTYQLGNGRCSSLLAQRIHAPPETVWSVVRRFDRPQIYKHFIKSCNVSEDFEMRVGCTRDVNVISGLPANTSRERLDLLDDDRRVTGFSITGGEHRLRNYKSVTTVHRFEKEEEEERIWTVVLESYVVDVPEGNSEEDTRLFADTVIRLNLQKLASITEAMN; partner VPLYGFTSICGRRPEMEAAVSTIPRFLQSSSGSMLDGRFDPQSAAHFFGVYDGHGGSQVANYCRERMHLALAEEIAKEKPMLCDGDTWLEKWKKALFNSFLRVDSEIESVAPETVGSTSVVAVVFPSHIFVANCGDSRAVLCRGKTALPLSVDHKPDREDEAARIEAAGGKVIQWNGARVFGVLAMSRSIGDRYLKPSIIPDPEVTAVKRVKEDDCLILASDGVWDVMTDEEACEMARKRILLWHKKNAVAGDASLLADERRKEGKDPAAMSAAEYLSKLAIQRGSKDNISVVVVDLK
Variant	relative binding score [%]
L93D	2.16
E127T	75.5
E151H	62.1
K126M	86.8
E139P	4.19
F124E	55.8
F56R	-6.32
S150C	46.3
V145H	-0.326
T86N	81.7
P146A	40.9
S140A	-6.31
K58Y	32.2
P50V	18.2
R99S	9.26
A170S	31.8
F103E	-18.3
V142A	57.8
L20N	67.4
H110T	20.6
I57F	-6.89

Repeated from above (block 1):
Molecule	lacZ reporter activity
B4 (RNF4 RING domain)	2110
MANWVFCNRCFQPPHRTSCFSLTNCGHVYCDACLGKGKKNECLICKAPCRTVLLSK (RNF212 RING domain (UniProt Q495C1))	0
LKQVSIRENCCSLCCDEVADTQLKPCGHSDLCMDCALQLETCPLCRKEIVSRIRQI (RSPRY1 RING domain (UniProt Q96DX4))	0
QLQDEEDDSLCRICMDAVIDCVLLECGHMVTCTKCGKRMSECPICRQYVVRAVHVF (RNF34 RING domain (UniProt Q969K3))	0
B2 (TRIM3 RING domain)	0
